Measured values of several laboratories.
Compare with care: the assays were run in different laboratories. “And” joins repeats or separate records; there may be more than shown. Numbers after ± are the reported error.
CA5B: Carbonic anhydrase 5B, mitochondrial (CA5B, Homo sapiens, UniProt Q9Y2D0)
Chain of UniProt Q9Y2D0 (whole entry, looked up): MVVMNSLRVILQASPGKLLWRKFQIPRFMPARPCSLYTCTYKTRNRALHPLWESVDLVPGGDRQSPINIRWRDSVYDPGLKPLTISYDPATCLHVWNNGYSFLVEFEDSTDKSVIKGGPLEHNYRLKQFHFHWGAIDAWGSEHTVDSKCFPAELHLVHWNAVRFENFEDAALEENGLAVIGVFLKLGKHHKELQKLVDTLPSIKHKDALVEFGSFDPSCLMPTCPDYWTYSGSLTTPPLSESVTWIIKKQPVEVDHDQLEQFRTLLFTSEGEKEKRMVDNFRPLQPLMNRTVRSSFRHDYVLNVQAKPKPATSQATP
GATD3: Glutamine amidotransferase-like class 1 domain-containing protein 3, mitochondrial (GATD3, Homo sapiens, UniProt P0DPI2)
Chain of UniProt P0DPI2 (whole entry, looked up): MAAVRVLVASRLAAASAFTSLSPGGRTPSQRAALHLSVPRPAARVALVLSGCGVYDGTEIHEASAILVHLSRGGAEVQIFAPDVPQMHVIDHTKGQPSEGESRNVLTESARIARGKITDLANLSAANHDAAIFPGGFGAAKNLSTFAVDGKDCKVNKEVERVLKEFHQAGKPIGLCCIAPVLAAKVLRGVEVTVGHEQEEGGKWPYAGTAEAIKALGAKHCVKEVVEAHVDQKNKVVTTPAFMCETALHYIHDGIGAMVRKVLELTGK
USP5 ZnF-UBD domain: Ubiquitin carboxyl-terminal hydrolase 5, ZnF-UBD domain (USP5, Homo sapiens, UniProt P45974)
Chain of UniProt P45974 (whole entry, looked up): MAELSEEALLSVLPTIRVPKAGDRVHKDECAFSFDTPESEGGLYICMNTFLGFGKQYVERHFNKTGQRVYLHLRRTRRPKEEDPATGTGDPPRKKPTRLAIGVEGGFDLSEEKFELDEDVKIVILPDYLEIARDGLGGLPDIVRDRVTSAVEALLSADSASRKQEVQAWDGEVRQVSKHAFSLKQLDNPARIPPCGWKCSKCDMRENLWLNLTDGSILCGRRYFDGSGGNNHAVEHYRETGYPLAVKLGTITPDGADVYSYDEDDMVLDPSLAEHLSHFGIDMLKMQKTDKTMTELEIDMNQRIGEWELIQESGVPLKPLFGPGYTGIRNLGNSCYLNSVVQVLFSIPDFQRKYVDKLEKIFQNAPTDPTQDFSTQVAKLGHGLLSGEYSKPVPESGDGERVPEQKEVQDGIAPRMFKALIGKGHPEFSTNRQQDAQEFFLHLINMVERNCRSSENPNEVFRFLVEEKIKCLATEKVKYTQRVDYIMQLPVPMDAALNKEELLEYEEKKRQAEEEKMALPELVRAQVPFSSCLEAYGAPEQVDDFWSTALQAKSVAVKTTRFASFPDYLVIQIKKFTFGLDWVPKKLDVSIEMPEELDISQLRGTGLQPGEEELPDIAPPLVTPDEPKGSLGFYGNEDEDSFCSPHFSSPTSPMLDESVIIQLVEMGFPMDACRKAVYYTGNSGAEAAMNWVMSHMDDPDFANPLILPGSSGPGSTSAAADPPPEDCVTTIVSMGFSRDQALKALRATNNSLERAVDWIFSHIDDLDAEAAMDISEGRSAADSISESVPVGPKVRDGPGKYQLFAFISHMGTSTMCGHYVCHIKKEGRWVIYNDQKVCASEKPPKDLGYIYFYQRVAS
Tumor necrosis factor receptor superfamily member 1A extracellular domain: Tumor necrosis factor receptor superfamily member 1A, extracellular domain (Homo sapiens, UniProt P19438)
Chain of UniProt P19438 (whole entry, looked up): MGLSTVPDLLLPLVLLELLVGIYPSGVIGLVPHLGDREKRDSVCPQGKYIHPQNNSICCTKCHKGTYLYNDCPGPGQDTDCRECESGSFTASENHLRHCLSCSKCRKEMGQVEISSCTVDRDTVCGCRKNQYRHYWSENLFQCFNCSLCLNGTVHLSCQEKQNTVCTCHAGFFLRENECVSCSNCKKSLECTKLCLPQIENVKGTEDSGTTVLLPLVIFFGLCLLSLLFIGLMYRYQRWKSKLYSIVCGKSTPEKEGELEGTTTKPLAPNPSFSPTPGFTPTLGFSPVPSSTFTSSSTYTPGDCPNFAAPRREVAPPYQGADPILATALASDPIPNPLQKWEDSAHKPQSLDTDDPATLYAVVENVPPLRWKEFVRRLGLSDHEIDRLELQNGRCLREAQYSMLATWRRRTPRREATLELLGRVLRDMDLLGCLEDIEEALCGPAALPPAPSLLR
HDAC5: Histone deacetylase 5 (HDAC5, Homo sapiens, UniProt Q9UQL6)
Chain of UniProt Q9UQL6 (whole entry, looked up): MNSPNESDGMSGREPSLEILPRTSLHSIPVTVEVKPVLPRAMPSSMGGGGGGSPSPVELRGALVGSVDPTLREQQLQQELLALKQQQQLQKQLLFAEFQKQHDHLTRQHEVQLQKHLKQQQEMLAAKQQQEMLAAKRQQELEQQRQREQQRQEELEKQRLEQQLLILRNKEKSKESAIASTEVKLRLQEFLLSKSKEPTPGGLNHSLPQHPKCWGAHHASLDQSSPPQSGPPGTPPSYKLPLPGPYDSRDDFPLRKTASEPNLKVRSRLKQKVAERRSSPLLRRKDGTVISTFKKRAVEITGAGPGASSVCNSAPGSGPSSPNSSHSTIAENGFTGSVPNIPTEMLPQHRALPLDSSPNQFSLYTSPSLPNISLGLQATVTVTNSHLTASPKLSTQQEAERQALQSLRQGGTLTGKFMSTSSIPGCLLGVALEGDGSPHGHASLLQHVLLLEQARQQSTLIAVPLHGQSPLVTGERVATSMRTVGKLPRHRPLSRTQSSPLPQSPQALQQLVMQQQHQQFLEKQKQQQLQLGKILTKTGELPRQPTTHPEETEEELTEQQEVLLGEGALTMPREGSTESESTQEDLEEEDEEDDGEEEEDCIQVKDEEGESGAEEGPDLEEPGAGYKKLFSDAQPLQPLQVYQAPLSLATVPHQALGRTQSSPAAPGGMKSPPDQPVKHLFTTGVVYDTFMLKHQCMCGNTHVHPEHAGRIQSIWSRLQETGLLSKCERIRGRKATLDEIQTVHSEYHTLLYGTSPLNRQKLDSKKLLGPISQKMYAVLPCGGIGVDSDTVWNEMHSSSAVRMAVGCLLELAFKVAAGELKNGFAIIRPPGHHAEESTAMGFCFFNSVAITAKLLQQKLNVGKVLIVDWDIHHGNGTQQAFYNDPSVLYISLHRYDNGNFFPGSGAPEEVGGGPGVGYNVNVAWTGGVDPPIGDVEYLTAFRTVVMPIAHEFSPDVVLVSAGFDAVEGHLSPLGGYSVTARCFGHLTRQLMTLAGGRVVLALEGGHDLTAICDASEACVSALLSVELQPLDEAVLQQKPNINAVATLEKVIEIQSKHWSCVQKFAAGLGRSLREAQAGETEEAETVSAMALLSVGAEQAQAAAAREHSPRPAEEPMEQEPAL
Chain of UniProt P53779 (whole entry, looked up): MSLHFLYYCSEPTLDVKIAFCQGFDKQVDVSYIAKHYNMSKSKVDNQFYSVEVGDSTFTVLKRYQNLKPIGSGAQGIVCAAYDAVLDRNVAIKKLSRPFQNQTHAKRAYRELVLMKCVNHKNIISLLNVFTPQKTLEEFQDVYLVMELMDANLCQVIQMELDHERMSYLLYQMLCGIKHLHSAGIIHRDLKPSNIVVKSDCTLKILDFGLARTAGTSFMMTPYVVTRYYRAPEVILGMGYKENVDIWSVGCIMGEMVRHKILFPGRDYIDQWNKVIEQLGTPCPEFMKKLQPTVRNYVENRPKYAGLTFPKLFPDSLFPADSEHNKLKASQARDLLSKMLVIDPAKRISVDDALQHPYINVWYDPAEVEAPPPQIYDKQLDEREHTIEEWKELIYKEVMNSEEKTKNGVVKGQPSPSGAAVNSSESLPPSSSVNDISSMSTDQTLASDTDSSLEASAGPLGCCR
Chain of UniProt Q9FN92 (whole entry, looked up): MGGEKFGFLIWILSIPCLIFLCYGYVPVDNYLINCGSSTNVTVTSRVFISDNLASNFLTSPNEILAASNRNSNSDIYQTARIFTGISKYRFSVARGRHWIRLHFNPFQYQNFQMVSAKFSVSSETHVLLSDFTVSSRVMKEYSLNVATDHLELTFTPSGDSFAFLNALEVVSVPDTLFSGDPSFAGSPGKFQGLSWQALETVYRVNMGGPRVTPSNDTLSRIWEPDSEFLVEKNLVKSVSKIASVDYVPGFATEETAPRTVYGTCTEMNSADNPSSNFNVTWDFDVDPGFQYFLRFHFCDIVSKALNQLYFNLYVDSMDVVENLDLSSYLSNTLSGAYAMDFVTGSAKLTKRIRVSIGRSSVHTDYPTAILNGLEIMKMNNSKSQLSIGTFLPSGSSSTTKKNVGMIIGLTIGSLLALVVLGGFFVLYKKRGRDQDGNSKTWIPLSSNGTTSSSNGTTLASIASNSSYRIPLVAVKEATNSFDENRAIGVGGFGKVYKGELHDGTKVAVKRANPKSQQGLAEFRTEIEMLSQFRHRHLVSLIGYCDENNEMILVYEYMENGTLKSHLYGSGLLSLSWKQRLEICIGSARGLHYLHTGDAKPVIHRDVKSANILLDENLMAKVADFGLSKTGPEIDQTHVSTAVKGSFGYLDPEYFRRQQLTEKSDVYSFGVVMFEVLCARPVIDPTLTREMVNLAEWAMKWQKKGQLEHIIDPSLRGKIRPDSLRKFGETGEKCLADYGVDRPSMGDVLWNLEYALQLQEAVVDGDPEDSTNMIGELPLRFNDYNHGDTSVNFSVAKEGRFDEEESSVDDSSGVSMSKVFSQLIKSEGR
Chain of UniProt P45983 (whole entry, looked up): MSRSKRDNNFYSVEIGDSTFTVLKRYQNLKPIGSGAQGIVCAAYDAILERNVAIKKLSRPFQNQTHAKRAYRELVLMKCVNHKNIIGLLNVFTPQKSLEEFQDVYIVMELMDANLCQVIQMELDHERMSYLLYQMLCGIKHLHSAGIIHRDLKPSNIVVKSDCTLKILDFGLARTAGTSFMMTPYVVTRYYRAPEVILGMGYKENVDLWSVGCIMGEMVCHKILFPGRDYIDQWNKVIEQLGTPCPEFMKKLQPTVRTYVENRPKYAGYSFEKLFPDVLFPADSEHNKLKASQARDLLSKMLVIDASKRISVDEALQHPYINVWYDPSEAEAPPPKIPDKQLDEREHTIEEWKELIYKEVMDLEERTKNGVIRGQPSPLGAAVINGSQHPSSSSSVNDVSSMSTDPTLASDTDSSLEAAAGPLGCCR
Chain of UniProt P62993 (whole entry, looked up): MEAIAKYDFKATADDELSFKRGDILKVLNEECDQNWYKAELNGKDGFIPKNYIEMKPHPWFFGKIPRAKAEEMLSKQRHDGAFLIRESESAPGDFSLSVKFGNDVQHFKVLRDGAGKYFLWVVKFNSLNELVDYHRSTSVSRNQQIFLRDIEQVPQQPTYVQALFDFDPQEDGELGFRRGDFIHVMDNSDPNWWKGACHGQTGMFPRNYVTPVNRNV

Structure (SMILES) = NS(=O)(=O)c1ccccc1; target = CA5B; test = thermal shift; setting = pH 7.0, 25 °C; Kd = 12.5 µM
Structure (SMILES) = C[C@@H](N[C@@H](CCCN=C(N)N)C(=O)O)C(=O)O; target = uncharacterized protein (Pelagibacter ubique, UniProt Q4FLC2); test = isothermal titration calorimetry; system = Candidatus Pelagibacter ubique; setting = direct titration; Kd = 0.232 ± 0.051 µM
Structure (SMILES) = O=C(CCCCCCNC(=O)c1cnc(N(c2ccccc2)c2ccccc2Cl)nc1)NO; target = GATD3; test = inhibitor, competition pulldown; system = SW620 and MV4-11 lysate; setting = 1 h; Kd = 1.83 µM
Structure (SMILES) = O=C(C[C@@H](C(F)F)n1ccc(F)n1)N1CCC(O)(Cn2cnc3c(cnn3-c3ccc(F)cc3)c2=O)CC1; target = USP7 (Homo sapiens, UniProt Q93009, V517F); test = isothermal titration calorimetry; setting = USP7 V517F; Kd = 3.63 ± 1.48 µM
Structure (SMILES) = CC(C)(COP(=O)(O)OP(=O)(O)OC[C@H]1O[C@@H](n2cnc3c(N)ncnc32)[C@H](O)[C@@H]1OP(=O)(O)O)[C@@H](O)C(=O)NCCC(=O)NCCS; target = Thialysine N-epsilon-acetyltransferase (Homo sapiens, UniProt Q96F10); test = competitor, competition MS pulldown; system = SW-620 cell lysate; setting = added: photo-immobilized beads; Kd = 8.12 µM
Structure (SMILES) = Cn1cc2c3c(c[nH]c3c1=O)CN(c1ncc(F)cc1F)c1cc(C(=O)O)c(CS(C)(=O)=O)cc1-2; target = elongin C (Spodoptera frugiperda, UniProt A0A2H1WSX9+A0A9R0EEM2); test = ternary complex formation, degrader, AlphaLISA; Kd = > 0.5 µM
Structure (SMILES) = N[C@H](CC(=O)O)C(=O)O; target = Methyl-accepting chemotaxis protein, ligand-binding domain (Pectobacterium atrosepticum, UniProt Q6D6I9); test = isothermal titration calorimetry; setting = pH 6.0, 25 °C, ligand-binding domain; Kd = 23 ± 2 µM
Structure (SMILES) = O=C(CCCCCCC(=O)Nc1ccc([C@H]2O[C@@H](CSc3nc(-c4ccccc4)c(-c4ccccc4)o3)C[C@@H](c3ccc(CO)cc3)O2)cc1)NO; target = GATD3; test = inhibitor, competition pulldown; system = SW620 and MV4-11 lysate; setting = 1 h; Kd = > 30.2 µM
Structure (SMILES) = Nc1nc(-c2ccc(Cl)c(S(N)(=O)=O)c2)cs1; target = CA5B; test = thermal shift; setting = pH 7.0, 25 °C; Kd = 0.63 µM
Structure (SMILES) = O=c1cc(-c2ccc([N+](=O)[O-])cc2)[nH]c2c(-c3ccc(Cl)cc3)c(Cc3ccccc3)nn12; target = Sodium channel protein type 8 subunit alpha, C-terminal domain (SCN8A, Homo sapiens, UniProt Q9UQD0); test = SPR; system = PBS with 0.005% Tween-20 and 2% DMSO; setting = 25 °C, immobilised C-terminal domain; Kd = 4.07 ± 0.28 µM
Structure (SMILES) = OC[C@H]1O[C@@](CO)(OC[C@@]2(OC[C@@]3(O[C@H]4O[C@H](CO)[C@@H](O)[C@H](O)[C@H]4O)O[C@H](CO)[C@@H](O)[C@@H]3O)O[C@H](CO)[C@@H](O)[C@@H]2O)[C@@H](O)[C@@H]1O; target = uncharacterized protein (Streptococcus pneumoniae, UniProt A0A0H2ZPW1); test = binder; Kd = 0.6 µM
Structure (SMILES) = O=C(O)CCc1nc2ncccn2n1; target = USP5 ZnF-UBD domain; Kd = > 1000 µM
Structure (SMILES) = CC(=O)Nc1ccc(C(=O)Nc2ccccc2N)cc1; target = GATD3; test = inhibitor, competition pulldown; system = SW620 and MV4-11 lysate; setting = 1 h; Kd = > 30.2 µM
Structure (SMILES) = O=C(O)CCc1ccno1; target = USP5 ZnF-UBD domain; Kd = > 1000 µM
Structure (SMILES) = O=[N+]([O-])c1ccc2c(N=Nc3ccc4ccccc4c3O)c(O)cc(S(=O)(=O)O)c2c1; target = Diphosphomevalonate decarboxylase (Staphylococcus epidermidis, UniProt Q9FD73); test = binding, tryptophan fluorescence quenching; setting = pH 8.3, 25 °C; Kd = 1.8 ± 0.2 µM
Structure (SMILES) = C[C@@H](O)[C@H](NC(=O)[C@H](CCC(N)=O)NC(=O)[C@@H]1CCCN1C(=O)[C@@H]1CCCN1C(=O)[C@@H]1CCCN1C(=O)[C@@H]1CCCN1C(=O)[C@@H](NC(=O)[C@H](Cc1ccccc1)NC(=O)[C@@H]1CCCN1C(=O)[C@H](CO)NC(=O)[C@@H]1CCCN1)[C@@H](C)O)C(=O)N1CCC[C@H]1C(=O)N[C@@H](CO)C(=O)N1CCC[C@H]1C(=O)O; target = GRB2 (Homo sapiens, UniProt P62993); test = binding, NMR titration, measured: nSH3 domain; setting = added: SOS1 proline-rich peptide; Kd = 950 µM
Structure (SMILES) = O=C(O)c1cc(-c2ccc(CO)cc2F)ccn1; target = Tumor necrosis factor receptor superfamily member 1A extracellular domain; test = SPR OneStep; setting = immobilized target; Kd = 1310 ± 40 µM
Structure (SMILES) = O=C(O)CCc1cnn(-c2ccccc2)c1; target = USP5 ZnF-UBD domain; Kd = > 1000 µM
Structure (SMILES) = Nc1ncnc2c1ncn2[C@@H]1O[C@H](COP(=O)(O)OP(=O)(O)O)[C@@H](O)[C@H]1O; target = CKMT1A (Homo sapiens, UniProt P12532); test = microscale thermophoresis; setting = pH 8.5, added: creatine 10 mM + nitrate 50 mM; Kd = 307 ± 194 µM
Structure (SMILES) = Cn1cc(-c2ccc(S(=O)(=O)n3ccc(/C=C/C(=O)Nc4ccccc4N)c3)cc2)cn1; target = HDAC5; test = inhibitor, competition pulldown; system = SW620 and MV4-11 lysate; setting = 1 h; Kd = > 30.2 µM
Structure (SMILES) = O=C(O)c1cc(-c2ccccc2O)ccn1; target = Tumor necrosis factor receptor superfamily member 1A extracellular domain; test = SPR OneStep; setting = immobilized target; Kd = 760 ± 10 µM
Structure (SMILES) = N[C@@H](Cc1c[nH]c2ccccc12)C(=O)O; target = Transcription attenuation protein MtrB (mtrB, Halalkalibacterium halodurans, UniProt Q9KCC6); test = binding, circular dichroism; system = Bacillus halodurans; setting = pH 8; Kd = 14.6 ± 1.8 µM
Structure (SMILES) = O=C(O)Cn1ccc2ccccc2c1=O; target = USP5 ZnF-UBD domain; Kd = > 1000 µM
Structure (SMILES) = NC(=O)c1cccc(-c2ccc(C(=O)O)nc2)c1; target = Tumor necrosis factor receptor superfamily member 1A extracellular domain; test = SPR OneStep; setting = immobilized target; Kd = 920 ± 10 µM
Structure (SMILES) = C=CC(=O)N1CCN(c2nc(OC[C@@H]3CCCN3C)nc3c(F)c(-c4nc(N)cc(C)c4C(F)(F)F)c(Cl)cc23)[C@@H](C)C1; target = GTPase KRas, GDP-bound (KRAS, Homo sapiens, UniProt P01116, Q61R); test = binding, surface plasmon resonance; Kd = 0.563 ± 0.043 µM
Structure (SMILES) = CC(=O)C(=O)[C@@H](O)CO; target = RapC; Kd = 566 µM
Structure (SMILES) = Nc1nc2c(ncn2[C@@H]2O[C@H](COP(=O)(O)O)[C@@H](O)[C@H]2O)c(=O)[nH]1; target = GUK1 (Homo sapiens, UniProt Q16774, R44A); test = binding, ITC; setting = 25 °C, added: GMP; Kd = 270 ± 30 µM
Structure (SMILES) = O=C(Nc1nnc(-c2ccncc2)s1)C(F)(F)Cl; target = MAPK10 (Homo sapiens, UniProt P53779); setting = pH 7.4; Kd = 18.4 µM and 28.8 µM
Structure (SMILES) = Cc1cc(NC(=O)CCC(=O)O)nn1C; target = USP5 ZnF-UBD domain; Kd = > 1000 µM
Structure (SMILES) = Nc1ccccc1NC(=O)c1ccc(CNc2nccc(-c3cccnc3)n2)cc1; target = HDAC5; test = inhibitor, competition pulldown; system = SW620 and MV4-11 lysate; setting = 1 h; Kd = > 30.2 µM
Structure (SMILES) = CC(=O)c1cnc2ccc(-c3cc(Cl)c(O)c(Cl)c3)nc2c1N[C@H]1CC[C@H](CN(C)C)CC1; target = Probable receptor-like protein kinase At5g59700 (Arabidopsis thaliana, UniProt Q9FN92); test = binding, SPR; Kd = 19.4 µM
Structure (SMILES) = O=C(O)CCC(=O)c1ccc(S(=O)(=O)N2CCCC2)cc1; target = USP5 ZnF-UBD domain; Kd = 117 µM
Structure (SMILES) = CS(=O)(=O)NC(=O)c1cc(-c2ccc(N)cc2)ccn1; target = Tumor necrosis factor receptor superfamily member 1A extracellular domain; test = binding, SPR OneStep; Kd = 984 ± 117 µM
Structure (SMILES) = O=C(Nc1nnc(-c2ccncc2)s1)C(F)(F)Br; target = MAPK8 (Homo sapiens, UniProt P45983); Kd = 12.7 µM
Structure (SMILES) = O=C(O)c1cc(-c2ccccc2F)ccn1; target = Tumor necrosis factor receptor superfamily member 1A extracellular domain; test = binding, SPR; setting = irregular sensorgram; Kd = 590 ± 60 µM
Structure (SMILES) = O=C(O)CCn1ccccc1=O; target = USP5 ZnF-UBD domain; Kd = > 1000 µM
Structure (SMILES) = O=C(/C=C/c1ccc(CN(CCO)CCc2c[nH]c3ccccc23)cc1)NO; target = GATD3; test = inhibitor, competition pulldown; system = SW620 and MV4-11 lysate; setting = 1 h; Kd = > 30.2 µM
Structure (SMILES) = O=C(O)c1cc(-c2ccc(F)cc2)cc(CO)n1; target = Tumor necrosis factor receptor superfamily member 1A extracellular domain; test = SPR OneStep; setting = immobilized target; Kd = 1080 ± 130 µM
Structure (SMILES) = Nc1ccccc1NC(=O)c1ccc(CNC(=O)OCc2cccnc2)cc1; target = GATD3; test = inhibitor, competition pulldown; system = SW620 and MV4-11 lysate; setting = 1 h; Kd = > 30.2 µM
Structure (SMILES) = O=C(O)c1cc(-c2ccccc2)ccn1; target = Tumor necrosis factor receptor superfamily member 1A extracellular domain; test = binding, SPR; setting = irregular sensorgram; Kd = 600 ± 30 µM
Structure (SMILES) = NC(=O)c1cc(-n2c(CCC(=O)O)nc3ccccc32)cs1; target = USP5 ZnF-UBD domain; Kd = > 1000 µM
Structure (SMILES) = O=C(NO)c1cnc(NC2(c3ccccc3)CC2)nc1; target = HDAC5; test = inhibitor, competition pulldown; system = SW620 and MV4-11 lysate; setting = 1 h; Kd = > 30.2 µM
